Measurements of several laboratories.
Numbered parts are unrelated; each lists some results of a single study. Several values in a cell are separate wells, animals, samples, runs or records.
UniProt Q5S007, sequence (whole entry, unmodified, looked up): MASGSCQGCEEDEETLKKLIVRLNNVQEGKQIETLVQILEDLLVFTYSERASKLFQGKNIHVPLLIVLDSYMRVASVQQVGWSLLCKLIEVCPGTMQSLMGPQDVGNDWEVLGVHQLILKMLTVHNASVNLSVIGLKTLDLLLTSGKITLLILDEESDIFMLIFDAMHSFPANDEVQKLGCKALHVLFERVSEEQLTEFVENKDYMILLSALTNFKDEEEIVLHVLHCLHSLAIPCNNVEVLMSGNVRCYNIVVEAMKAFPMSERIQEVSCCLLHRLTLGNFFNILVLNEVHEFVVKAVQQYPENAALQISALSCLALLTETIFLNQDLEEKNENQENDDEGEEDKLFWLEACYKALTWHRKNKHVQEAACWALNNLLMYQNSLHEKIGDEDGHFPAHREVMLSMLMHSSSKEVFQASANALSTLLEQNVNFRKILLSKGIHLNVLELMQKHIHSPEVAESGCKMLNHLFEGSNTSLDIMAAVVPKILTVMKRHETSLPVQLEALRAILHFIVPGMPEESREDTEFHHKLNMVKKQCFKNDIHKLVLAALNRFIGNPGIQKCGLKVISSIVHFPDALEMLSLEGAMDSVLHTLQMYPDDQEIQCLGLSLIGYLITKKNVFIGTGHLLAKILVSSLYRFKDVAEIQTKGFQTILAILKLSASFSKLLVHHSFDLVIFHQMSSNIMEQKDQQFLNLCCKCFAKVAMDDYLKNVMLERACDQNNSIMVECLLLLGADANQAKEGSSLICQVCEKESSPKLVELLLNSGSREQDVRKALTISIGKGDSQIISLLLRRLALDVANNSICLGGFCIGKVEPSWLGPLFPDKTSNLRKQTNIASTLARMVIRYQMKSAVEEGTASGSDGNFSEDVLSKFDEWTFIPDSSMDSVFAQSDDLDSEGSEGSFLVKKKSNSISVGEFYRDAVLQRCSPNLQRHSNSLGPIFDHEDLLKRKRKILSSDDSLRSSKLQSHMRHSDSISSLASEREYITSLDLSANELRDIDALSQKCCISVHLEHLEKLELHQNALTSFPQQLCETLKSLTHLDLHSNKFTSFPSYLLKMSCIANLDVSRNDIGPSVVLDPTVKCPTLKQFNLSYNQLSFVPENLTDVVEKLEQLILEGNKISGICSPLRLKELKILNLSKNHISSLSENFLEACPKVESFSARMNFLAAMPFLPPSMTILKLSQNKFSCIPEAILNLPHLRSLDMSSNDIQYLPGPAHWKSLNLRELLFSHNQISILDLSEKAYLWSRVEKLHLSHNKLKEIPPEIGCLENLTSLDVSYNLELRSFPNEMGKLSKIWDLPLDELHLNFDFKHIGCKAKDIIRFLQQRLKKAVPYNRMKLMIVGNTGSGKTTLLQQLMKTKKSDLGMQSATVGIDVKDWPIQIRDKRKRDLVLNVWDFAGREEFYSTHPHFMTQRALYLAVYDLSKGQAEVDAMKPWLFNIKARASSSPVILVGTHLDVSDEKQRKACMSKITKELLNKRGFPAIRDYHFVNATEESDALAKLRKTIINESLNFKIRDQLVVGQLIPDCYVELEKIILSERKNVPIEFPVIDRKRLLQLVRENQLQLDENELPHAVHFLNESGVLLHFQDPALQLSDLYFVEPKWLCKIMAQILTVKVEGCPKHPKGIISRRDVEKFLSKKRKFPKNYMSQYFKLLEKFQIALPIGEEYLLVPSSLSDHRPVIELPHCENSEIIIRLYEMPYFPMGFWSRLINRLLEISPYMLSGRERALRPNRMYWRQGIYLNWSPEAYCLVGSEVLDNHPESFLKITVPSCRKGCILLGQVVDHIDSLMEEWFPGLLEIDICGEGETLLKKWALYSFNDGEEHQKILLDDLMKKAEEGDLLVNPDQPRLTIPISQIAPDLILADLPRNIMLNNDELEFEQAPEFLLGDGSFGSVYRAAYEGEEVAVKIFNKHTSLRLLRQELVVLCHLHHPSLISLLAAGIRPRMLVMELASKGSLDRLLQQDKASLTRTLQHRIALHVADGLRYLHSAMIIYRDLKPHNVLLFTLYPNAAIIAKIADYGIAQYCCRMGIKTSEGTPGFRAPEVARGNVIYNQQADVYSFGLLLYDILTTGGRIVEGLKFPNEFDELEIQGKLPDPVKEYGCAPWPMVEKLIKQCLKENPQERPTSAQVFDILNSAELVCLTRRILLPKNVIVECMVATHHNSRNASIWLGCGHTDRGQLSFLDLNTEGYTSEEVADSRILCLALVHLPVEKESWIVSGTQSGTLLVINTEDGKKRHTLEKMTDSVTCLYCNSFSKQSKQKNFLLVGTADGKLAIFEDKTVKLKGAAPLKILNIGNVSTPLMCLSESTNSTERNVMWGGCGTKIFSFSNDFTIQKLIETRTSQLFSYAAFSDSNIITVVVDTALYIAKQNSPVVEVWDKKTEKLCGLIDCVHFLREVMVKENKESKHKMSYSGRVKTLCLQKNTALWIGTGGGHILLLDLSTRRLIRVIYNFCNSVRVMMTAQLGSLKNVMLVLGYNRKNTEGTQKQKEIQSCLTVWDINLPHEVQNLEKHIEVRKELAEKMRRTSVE
UniProt Q9UPE1, sequence (whole entry, looked up): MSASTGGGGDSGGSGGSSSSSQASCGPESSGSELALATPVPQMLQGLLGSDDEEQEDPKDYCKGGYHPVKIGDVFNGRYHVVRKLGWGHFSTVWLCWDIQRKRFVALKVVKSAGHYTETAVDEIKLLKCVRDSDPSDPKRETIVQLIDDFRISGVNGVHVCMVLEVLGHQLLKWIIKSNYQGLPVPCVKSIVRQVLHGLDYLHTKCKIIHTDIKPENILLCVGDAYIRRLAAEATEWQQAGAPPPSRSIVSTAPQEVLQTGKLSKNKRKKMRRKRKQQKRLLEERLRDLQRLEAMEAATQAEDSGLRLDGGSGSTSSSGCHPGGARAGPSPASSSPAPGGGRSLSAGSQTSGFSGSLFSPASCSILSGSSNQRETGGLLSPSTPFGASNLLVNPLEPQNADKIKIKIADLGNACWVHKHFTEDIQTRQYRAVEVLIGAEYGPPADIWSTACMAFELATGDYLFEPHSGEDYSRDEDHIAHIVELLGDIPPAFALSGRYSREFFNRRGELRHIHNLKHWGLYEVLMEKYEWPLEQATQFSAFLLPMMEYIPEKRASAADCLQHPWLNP
UniProt Q6P2M8, sequence (whole entry, looked up): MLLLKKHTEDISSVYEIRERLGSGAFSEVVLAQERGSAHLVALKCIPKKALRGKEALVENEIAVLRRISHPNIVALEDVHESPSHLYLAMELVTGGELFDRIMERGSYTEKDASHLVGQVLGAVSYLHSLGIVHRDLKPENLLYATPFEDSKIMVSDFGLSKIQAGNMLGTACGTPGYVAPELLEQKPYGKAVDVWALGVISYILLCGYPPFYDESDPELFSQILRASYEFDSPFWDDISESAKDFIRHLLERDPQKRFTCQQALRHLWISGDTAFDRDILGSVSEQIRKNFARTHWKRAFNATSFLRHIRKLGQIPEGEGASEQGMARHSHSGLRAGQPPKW
UniProt Q99640, sequence (whole entry, looked up): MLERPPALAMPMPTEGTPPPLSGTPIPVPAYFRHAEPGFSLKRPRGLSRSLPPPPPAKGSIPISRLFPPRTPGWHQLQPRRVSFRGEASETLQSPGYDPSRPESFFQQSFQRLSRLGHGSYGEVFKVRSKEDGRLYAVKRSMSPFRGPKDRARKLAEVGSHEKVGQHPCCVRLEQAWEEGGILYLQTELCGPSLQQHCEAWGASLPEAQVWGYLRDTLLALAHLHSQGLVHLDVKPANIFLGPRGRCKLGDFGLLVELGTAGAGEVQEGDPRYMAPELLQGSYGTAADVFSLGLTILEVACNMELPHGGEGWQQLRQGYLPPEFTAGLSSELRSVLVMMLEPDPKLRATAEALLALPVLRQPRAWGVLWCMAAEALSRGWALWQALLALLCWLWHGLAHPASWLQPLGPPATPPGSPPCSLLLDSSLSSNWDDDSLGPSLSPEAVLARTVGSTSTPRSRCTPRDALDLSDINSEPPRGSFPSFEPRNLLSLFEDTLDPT

Block 1 — effect on: cell-free assay; technique: competition with immobilised ligand; tested at: 1 µM; endpoint: remaining binding
Structure (SMILES): O=C1NC(c2ccccn2)Sc2ccccc21 (centres unmarked)
FLT4 (Homo sapiens, UniProt P35916): 70%
PNCK (Homo sapiens, UniProt Q6P2M8): 71%
LRRK2 (Homo sapiens, UniProt Q5S007, G2019S): 81%
SRPK3 (Homo sapiens, UniProt Q9UPE1): 100%
PKMYT1 (Homo sapiens, UniProt Q99640): 100%

Block 2 — species: mouse; medium: microsomes or S9; tested at: 2 µM; time: 0.5 h; endpoint: remaining compound
CCN(CC)C(=O)CN(C)Cc1nc(-c2nc[nH]n2)no1: > 100%
Brc1cccc(Nc2ncnc3cc4c(cc23)OC(COCc2ccccc2)CO4)c1 (centres unmarked): 28.3%
O=c1ccc(-n2ccnc2)nn1CC(O)COc1ccc(Oc2ccccc2)cc1 (centres unmarked): 45.9%
O=c1c2c3c(sc2ncn1Cc1ccc2c(c1)OCO2)CNCC3: 11.4%
CN(Cc1cccc2cnccc12)c1cnccn1: 2.28%
O=C(NCCc1nccs1)c1cc(-c2ccc(Br)s2)n[nH]1: 45.4%
COCCCNc1nnc(Cc2ccc(Cl)cc2)c(O)n1: 87.1%

Block 3 — effect on: enzyme activity; mode: inhibitor; tested at: 0.5 µM; reference: control; endpoint: remaining activity
Target: Serine/threonine-protein kinase Nek4 (NEK4, Homo sapiens, UniProt P51957)
UniProt P51957, sequence (whole entry, looked up): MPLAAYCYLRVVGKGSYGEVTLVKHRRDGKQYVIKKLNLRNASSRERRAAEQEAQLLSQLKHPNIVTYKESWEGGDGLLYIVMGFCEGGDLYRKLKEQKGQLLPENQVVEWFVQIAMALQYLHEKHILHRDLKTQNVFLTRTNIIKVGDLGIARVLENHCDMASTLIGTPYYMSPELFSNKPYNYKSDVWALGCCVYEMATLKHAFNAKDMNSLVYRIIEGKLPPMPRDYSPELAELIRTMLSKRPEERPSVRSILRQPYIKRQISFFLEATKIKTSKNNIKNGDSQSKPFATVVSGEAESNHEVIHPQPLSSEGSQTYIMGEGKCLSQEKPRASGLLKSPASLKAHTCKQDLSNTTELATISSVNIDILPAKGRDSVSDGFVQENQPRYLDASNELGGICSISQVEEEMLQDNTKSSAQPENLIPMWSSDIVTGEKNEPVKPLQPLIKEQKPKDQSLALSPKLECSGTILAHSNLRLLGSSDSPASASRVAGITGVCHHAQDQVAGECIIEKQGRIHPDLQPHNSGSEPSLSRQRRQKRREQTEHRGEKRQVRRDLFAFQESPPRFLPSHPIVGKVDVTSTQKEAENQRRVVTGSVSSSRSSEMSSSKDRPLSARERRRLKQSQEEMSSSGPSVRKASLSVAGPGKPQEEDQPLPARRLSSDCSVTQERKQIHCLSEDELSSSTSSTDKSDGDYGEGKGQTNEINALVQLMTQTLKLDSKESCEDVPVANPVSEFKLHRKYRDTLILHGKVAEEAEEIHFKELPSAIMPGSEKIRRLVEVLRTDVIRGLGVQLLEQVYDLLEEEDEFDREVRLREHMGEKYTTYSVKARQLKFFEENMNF
Cc1ccc(Nc2nccc(N(C)c3ccc4c(C)n(C)nc4c3)n2)cc1S(N)(=O)=O: 91.1%
CCOC(=O)c1c(C)[nH]c(/C=C2\C(=O)Nc3ccccc32)c1C: 95.1%
COc1cc2nccc(Oc3ccc(NC(=S)NC(=O)c4ccccc4C)cc3)c2cc1OC: 97.6%
CN(C)c1ccc(C=C2C(=O)Nc3ccccc32)cc1: 102%
Cc1ccc(NC(=O)c2ccc(CN3CCN(C)CC3)cc2)cc1Nc1nc(-c2cccnc2)cs1: 92.4%
CNC(=O)c1cc(Oc2ccc(NC(=O)Nc3ccc(Cl)c(C(F)(F)F)c3)cc2)ccn1: 99.5%
COc1cc2ncnc(Nc3ccc(F)c(Cl)c3)c2cc1OCCCN1CCOCC1: 103%
N#CC(C#N)=C(N)/C(C#N)=C/c1ccc(O)cc1: 93.3%
OCC(O)CCON=C1C(c2c(O)[nH]c3ccccc23)=Nc2ccccc21 (centres unmarked): 83.9%
O=C1NC(=O)C(c2cn(CCCO)c3ncccc23)=C1c1cnccn1: 85.1%
Cn1c2ccccc2c2c3c(c4c5ccccc5n(CCC#N)c4c21)CNC3=O: 49.1%
CO[C@H]1C[C@@H]2CC[C@@H](C)[C@@](O)(O2)C(=O)C(=O)N2CCCC[C@H]2C(=O)O[C@H]([C@H](C)C[C@@H]2CC[C@@H](O)[C@H](OC)C2)CC(=O)[C@H](C)/C=C(\C)[C@@H](O)[C@@H](OC)C(=O)[C@H](C)C[C@H](C)/C=C/C=C/C=C/1C: 97.2%
COc1ccc(CNC(=O)Nc2ncc([N+](=O)[O-])s2)cc1: 91%
O=S(=O)(c1cccc2cnccc12)N1CCCNCC1: 90.7%
Nc1ncnc2n[nH]c(Nc3ccc(F)cc3)c12: 92.8%
COc1cc2ncnc(Nc3ccc(Oc4ccccc4)cc3)c2cc1OC: 96.8%

Block 4 — endpoint: tumour volume
SMILES: CC(=O)N[C@@H](Cc1c[nH]c2ccccc12)C(=O)N[C@@H](CCC(=O)C=[N+]=[N-])C(=O)OC(C)C
mice, MC-38 tumour rechallenge; 1 mg/kg, day 6 after injection: 71.9 mm3 and 21.2 mm3 and 64.8 mm3
mouse, EL4 tumour; subcutaneous, 0.3 mg/kg, day 17: 0 mm3 and 288 mm3 and 88 mm3
C57BL/6 CES1-/- mouse, EL4 tumour; intravenous, 1 mg/kg DON equivalent, treatment day 8, 5 days per week: 784 mm3 and 932 mm3 and 264 mm3 and 363 mm3 and 493 mm3 and 360 mm3 and 618 mm3 and 568 mm3
mouse, EL4 tumour; subcutaneous, 0.3 mg/kg, day 16: 945 mm3 and 0 mm3 and 97.2 mm3
mouse, MC-38 rechallenge tumour; 1 mg/kg, day 0 after injection: 0 mm3
mouse, EL4 tumour; subcutaneous, 0.3 mg/kg, day 15: 941 mm3 and 111 mm3 and 52.8 mm3 and 0 mm3 and 170 mm3 and 144 mm3
mice, MC-38 tumour rechallenge; 1 mg/kg, day 25 after injection: 0 mm3
